{"data": "Results pooled from the literature", "note": "Every numbered part comes from another study and shows a few of its results, in no order. Substitutions count along the parent as printed.", "UniProt O15294, sequence (whole entry, looked up)": "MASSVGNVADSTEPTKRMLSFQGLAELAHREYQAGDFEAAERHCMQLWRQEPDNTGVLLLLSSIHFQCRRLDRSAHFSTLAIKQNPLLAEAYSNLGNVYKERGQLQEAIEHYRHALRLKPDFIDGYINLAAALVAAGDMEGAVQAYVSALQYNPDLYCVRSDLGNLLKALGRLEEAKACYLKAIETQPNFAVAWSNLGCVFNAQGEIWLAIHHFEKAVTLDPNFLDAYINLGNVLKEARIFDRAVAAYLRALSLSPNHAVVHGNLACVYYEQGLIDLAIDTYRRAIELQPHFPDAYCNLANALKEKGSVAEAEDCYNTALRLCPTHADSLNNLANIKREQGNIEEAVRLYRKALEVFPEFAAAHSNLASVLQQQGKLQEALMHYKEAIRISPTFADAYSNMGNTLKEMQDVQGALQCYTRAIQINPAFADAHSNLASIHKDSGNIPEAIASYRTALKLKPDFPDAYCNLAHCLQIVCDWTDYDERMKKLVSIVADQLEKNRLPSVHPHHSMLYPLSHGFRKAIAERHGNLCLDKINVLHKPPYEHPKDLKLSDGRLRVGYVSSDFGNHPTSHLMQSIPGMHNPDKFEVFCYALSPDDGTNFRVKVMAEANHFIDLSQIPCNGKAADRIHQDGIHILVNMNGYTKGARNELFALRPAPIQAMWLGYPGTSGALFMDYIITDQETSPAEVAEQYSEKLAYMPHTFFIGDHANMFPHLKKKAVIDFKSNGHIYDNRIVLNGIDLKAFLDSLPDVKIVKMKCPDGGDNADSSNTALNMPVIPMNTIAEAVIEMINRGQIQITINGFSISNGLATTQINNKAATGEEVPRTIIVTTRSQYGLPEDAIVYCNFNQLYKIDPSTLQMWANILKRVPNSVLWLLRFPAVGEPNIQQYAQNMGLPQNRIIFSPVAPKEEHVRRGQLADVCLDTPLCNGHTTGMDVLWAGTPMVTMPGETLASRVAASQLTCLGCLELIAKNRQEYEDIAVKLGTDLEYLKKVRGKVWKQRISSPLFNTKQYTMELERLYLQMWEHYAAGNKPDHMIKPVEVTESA"}
{"data": "Set 1", "target": "ABI1, truncated, D143A, DHFR fusion (Arabidopsis thaliana)", "technique": "DHFR PCA, deep sequencing", "matrix": "yeast", "setting": "methotrexate growth selection, single substitutions", "with": "(+)-ABA 0.11 µM", "baseline": "wild-type fitted maximum", "direction": "higher = stronger binding", "starting sequence": "PYL1, truncated, DHFR fusion (Arabidopsis thaliana); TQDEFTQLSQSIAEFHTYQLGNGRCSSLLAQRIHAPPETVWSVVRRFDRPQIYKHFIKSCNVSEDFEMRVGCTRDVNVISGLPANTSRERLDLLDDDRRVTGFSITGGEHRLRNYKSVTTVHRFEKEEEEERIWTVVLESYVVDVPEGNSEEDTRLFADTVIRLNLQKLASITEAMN; partner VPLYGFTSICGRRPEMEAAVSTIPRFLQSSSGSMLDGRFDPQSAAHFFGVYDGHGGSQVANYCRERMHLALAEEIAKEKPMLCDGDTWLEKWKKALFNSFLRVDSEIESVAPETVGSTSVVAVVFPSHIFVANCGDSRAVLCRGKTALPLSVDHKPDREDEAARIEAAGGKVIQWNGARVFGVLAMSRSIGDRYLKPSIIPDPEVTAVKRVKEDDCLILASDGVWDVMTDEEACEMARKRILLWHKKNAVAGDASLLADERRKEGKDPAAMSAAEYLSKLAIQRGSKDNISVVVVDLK"}
{"Change": "L91E", "relative binding score [%]": 0.168}
{"Change": "K54A", "relative binding score [%]": -3.66}
{"Change": "G108V", "relative binding score [%]": -7.15}
{"Change": "F124K", "relative binding score [%]": 3.15}
{"Change": "S27T", "relative binding score [%]": 1.23}
{"Change": "Q10R", "relative binding score [%]": 29.5}
{"Change": "D92G", "relative binding score [%]": 3.49}
{"Change": "F157R", "relative binding score [%]": 7.79}
{"data": "Set 2", "target": "Fragile X messenger ribonucleoprotein 1, C-terminal low-complexity region (Fmr1, Mus musculus, UniProt P35922)", "technique": "RNA Bind-n-Seq", "molecule type": "RNA", "matrix": "in vitro", "tested at": "200 nM", "setting": "whole 134-nt RNA, ends assumed", "with": "150 mM KCl", "baseline": "input library", "direction": "higher = stronger binding", "all sequences stand within": "GGGAGUUCUACAGUCCGACGAUC … UGGAAUUCUCGGGUGUCAAGG"}
{"Sequence": "UGGGAGGUGGAUUUUGUUUAUAUUUUUAGCUCAUUUCCAGGGGUGGGAAUUUUUUUUUAAUAUGUGUCAUGAAUAAAGUUGUUUUUGAAA", "log2 enrichment": 0.297}
{"Sequence": "AGUCCUGUGCUACACAUCGUAUGUACCGAAUCAAACCCCCAAACCCCCAAAUUUAAAAAAGUAUUAUGUUACGCCGUUCGGAUCUGCACU", "log2 enrichment": -0.249}
{"Sequence": "UCAAGUCCUGUGCUACACAUCGUAUGUACCGAAUCGGUGGAAAAAAAGGUUUGGAAAGUAUUAUGUUACGCCGUUCGGAUCUGCACUUCC", "log2 enrichment": -0.771}
{"Sequence": "CAUCCUUUGGGCCCCUCAAGGCCUUCAACCUGGUCAAGGACAGUGCCACGGGGCUCUCCAAGGGCUACGCCUUCUGUGAGUACGUGGACA", "log2 enrichment": -1.44}
{"Sequence": "AGUCCUGUGCUACACAUCGUAUGUACCGAAUCGGGAAAAAAAGGGUUUUUGGGUGGGAAAGUAUUAUGUUACGCCGUUCGGAUCUGCACU", "log2 enrichment": 0.623}
{"Sequence": "UCAAGUCCUGUGCUACACAUCGUAUGUACCGAAUCGGCCGGGGCCGGGGCCGGGAAAGUAUUAUGUUACGCCGUUCGGAUCUGCACUUCC", "log2 enrichment": -0.259}
{"Sequence": "ACCAUGCAGGUGGGCAUCUUUGGGAAGUGGGGCAAGGGGGGGCUAGGGAGGGGGGUAACACUUUGGGAACAGGUGGUCCCAGGUCGUUUC", "log2 enrichment": 0.834}
{"Sequence": "GUCCUGUGCUACACAUCGUAUGUACCGAAUCAAAUUUUUUUAAACCCCCAAACCCAAAAAAGUAUUAUGUUACGCCGUUCGGAUCUGCAC", "log2 enrichment": -0.18}
{"data": "Set 3", "target": "CCNB2, cyclin fold, Cln2 fusion (human)", "technique": "yeast growth competition, sequencing", "matrix": "yeast", "setting": "weak parent motif", "baseline": "not given", "direction": "higher = stronger binding", "starting sequence": "SLBP docking peptide (human); ARYKRKLLINDFG"}
{"Change": "L7T", "normalised enrichment score": 0.347}
{"Change": "N10Y", "normalised enrichment score": 0.729}
{"Change": "K6F", "normalised enrichment score": 0.415}
{"Change": "L8R", "normalised enrichment score": 0.376}
{"Change": "L8Y", "normalised enrichment score": 0.726}
{"Change": "K4P", "normalised enrichment score": -0.159}
{"Change": "N10W", "normalised enrichment score": 0.995}
{"Change": "G13Y", "normalised enrichment score": 0.62}
{"data": "Other studies, line by line"}
{"Sequence": "GKRDHTFHMHSSVH", "target": "UDP-N-acetylglucosamine--peptide N-acetylglucosaminyltransferase 110 kDa subunit (OGT, Homo sapiens, UniProt O15294)", "test": "binding, phage display NGS", "system": "peptide", "scale": "baseline: input library", "quantity": "minimum log2 enrichment ratio", "result": 2.33}
{"note": "For quick reference, copied from above (set 2):"}
{"Sequence": "ACCAUGCAGGUGGGCAUCUUUGGGAAGUGGGGCAAGGGGGGGCUAGGGAGGGGGGUAACACUUUGGGAACAGGUGGUCCCAGGUCGUUUC", "log2 enrichment": 0.834}
{"Sequence": "GUCCUGUGCUACACAUCGUAUGUACCGAAUCAAAUUUUUUUAAACCCCCAAACCCAAAAAAGUAUUAUGUUACGCCGUUCGGAUCUGCAC", "log2 enrichment": -0.18}
{"Sequence": "UCAAGUCCUGUGCUACACAUCGUAUGUACCGAAUCGGUGGAAAAAAAGGUUUGGAAAGUAUUAUGUUACGCCGUUCGGAUCUGCACUUCC", "log2 enrichment": -0.771}
